Experimental data from different studies.
Compare with care: the assays were run in different laboratories. Values after ≈ are worked out from the molar mass of the structure shown.
Sequence of UniProt P53634 (whole entry, looked up): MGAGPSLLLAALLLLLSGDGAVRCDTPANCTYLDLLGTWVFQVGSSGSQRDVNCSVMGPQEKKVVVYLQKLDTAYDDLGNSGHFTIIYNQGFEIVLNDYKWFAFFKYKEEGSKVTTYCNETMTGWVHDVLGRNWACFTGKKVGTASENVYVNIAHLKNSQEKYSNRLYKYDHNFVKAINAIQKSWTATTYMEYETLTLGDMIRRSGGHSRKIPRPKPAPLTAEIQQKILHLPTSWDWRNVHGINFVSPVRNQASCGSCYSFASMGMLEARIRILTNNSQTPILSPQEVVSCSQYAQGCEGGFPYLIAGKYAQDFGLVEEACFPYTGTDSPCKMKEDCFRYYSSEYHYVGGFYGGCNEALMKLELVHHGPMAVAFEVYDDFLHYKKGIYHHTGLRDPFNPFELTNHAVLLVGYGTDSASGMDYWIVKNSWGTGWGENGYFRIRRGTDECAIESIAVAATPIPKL

CCOC(=O)COc1ccc2ccc3oc([N+](=O)[O-])cc3c2c1 has an MIC90 of 0.25 µg/mL (≈ 0.793 µM) (Mycolicibacterium aurum; REMA; ATCC 23366).
The MIC90 of Cn1c(=O)ccc2ccc(F)c(CCNC[C@H]3CN(c4cnc5c(n4)NC(=O)CO5)C(=O)O3)c21 is reported as 0.06 µg/mL (≈ 0.128 µM) (Enterococcus faecalis).
N#Cc1ccc2c(ccc3oc([N+](=O)[O-])cc32)c1 gave an MIC90 of greater than 32 µg/mL (Klebsiella aerogenes; REMA).
O=[N+]([O-])c1ccc(C2=[N+]([O-])c3ccccc3N3CCN=C23)cc1 gave an MIC90 of no more than 0.06 µg/mL (Prevotella spp.; bacterial growth).
CN[C@H](CC(C)C)C(=O)N[C@H]1C(=O)N[C@@H](CC(N)=O)C(=O)N[C@H]2C(=O)N[C@H]3C(=O)N[C@H](C(=O)N[C@H](C(=O)O)c4cc(O)cc(O)c4-c4cc3ccc4O)[C@H](O)c3ccc(c(Cl)c3)Oc3cc2cc(c3O[C@@H]2O[C@H](CO)[C@@H](O)[C@H](O)[C@H]2O[C@H]2C[C@](C)(N)[C@H](O)[C@H](C)O2)Oc2ccc(cc2Cl)[C@H]1O has an MIC90 of 0.5 µg/mL (≈ 0.345 µM) (Streptococcus pyogenes; erythromycin-resistant, 19 strains).
For CC[C@H](C)[C@@H]1NC(=O)[C@@H]2CCCN2C(=O)[C@H](CC(C)C)NC(=O)[C@H](CC(C)C)NC(=O)CNC(=O)[C@@H](NC(=O)[C@@H](NC(=O)[C@H](CC(=O)O)NC(=O)CNC(=O)[C@@H](NC(=O)[C@H](C)NC(=O)CNC(=O)[C@H](CCCCN)NC(=O)[C@H](CC(C)C)NC(=O)[C@H](CC(C)C)NC(=O)[C@H](CCCCN)NC(=O)CNC(=O)[C@@H](NC(=O)[C@@H](N)CC(C)C)C(C)C)C(C)C)C(C)C)CSSC[C@@H](C(=O)O)NC1=O, “log2 fold change” read -1.82 (RNA-seq, item: Pik3ap1 mRNA; mouse traumatic brain injury, frontal cortex and hippocampus; dose not given; relative to: TBI plus compound vs TBI).
For COC(=O)c1ccc2c(ccc3oc([N+](=O)[O-])cc32)c1, the MIC90 was greater than 32 µg/mL (Klebsiella aerogenes; REMA).
[O-][N+]1=C(c2ccc(Cl)cc2)C2=NCCN2c2ccccc21 has an MIC90 of 0.125 µg/mL (≈ 0.42 µM) (Bacteroides fragilis).
For COc1cc2c(Oc3ccc4[nH]c(C)cc4c3F)ccnc2cc1OCC1(N)CC1, “grade 3 Hyperthyroidism” read 0% (paediatric recurrent refractory sarcoma; concentration not given, whole group).
For CC[C@H](C)[C@H](NC(=O)[C@H](C)NC(=O)[C@H](CCCCN)NC(=O)[C@H](CC(C)C)NC(=O)[C@H](C)NC(=O)[C@@H](NC(=O)[C@H](Cc1c[nH]cn1)NC(=O)[C@H](CC(C)C)NC(=O)[C@@H](NC(=O)[C@@H](NC(=O)[C@H](CCCCN)NC(=O)[C@H](C)NC(=O)[C@H](C)NC(=O)[C@H](CO)NC(=O)[C@H](CCCCN)NC(=O)[C@H](Cc1ccccc1)NC(=O)[C@@H](NC(=O)[C@H](CCCCN)NC(=O)[C@H](CC(C)C)NC(=O)[C@H](Cc1ccccc1)NC(=O)[C@H](CO)NC(=O)[C@H](CCCCN)NC(=O)[C@H](Cc1c[nH]c2ccccc12)NC(=O)[C@H](CCCCN)NC(C)=O)[C@@H](C)O)[C@@H](C)O)C(C)C)[C@@H](C)O)C(=O)N[C@@H](CO)C(=O)N[C@@H](CO)C(N)=O, the MIC90 was greater than 64 µg/mL (Enterococcus faecalis; 40 strains).
CC[C@H](C)[C@H](NC(=O)[C@H](Cc1ccccc1)NC(=O)[C@H](CCC(=O)O)NC(=O)[C@H](CCCNC(=N)N)NC(=O)[C@H](C)NC(=O)[C@H](C)NC(=O)[C@H](CCC(N)=O)NC(=O)[C@H](CCC(=O)O)NC(=O)[C@H](CCC(=O)O)NC(=O)[C@H](CC(C)C)NC(=O)[C@H](Cc1ccc(O)cc1)NC(=O)[C@H](CO)NC(=O)[C@H](CO)NC(=O)[C@@H](NC(=O)[C@H](CC(=O)O)NC(=O)[C@H](CO)NC(=O)[C@@H](NC(=O)[C@H](Cc1ccccc1)NC(=O)[C@@H](NC(=O)CNC(=O)[C@H](CCC(=O)O)NC(=O)[C@H](C)NC(=O)CCc1c[nH]cn1)[C@@H](C)O)[C@@H](C)O)C(C)C)C(=O)N[C@@H](C)C(=O)N[C@@H](Cc1c[nH]c2ccccc12)C(=O)N[C@@H](CC(C)C)C(=O)N[C@H](C(=O)N[C@@H](CCCNC(=N)N)C(=O)NCC(=O)N[C@@H](CCCNC(=N)N)C(=O)N[C@@H](CCCCNC(=O)COCCOCCNC(=O)COCCOCCNC(=O)CC[C@H](NC(=O)CCCCCCCCCCCCCCCCC(=O)O)C(=O)O)C(=O)NCC(=O)NCC(=O)N[C@@H](CO)C(=O)N[C@@H](CCCCNc1c(NCCCCCN(O)C(=O)CCC(=O)NCCCCCN(O)C(=O)CCC(=O)NCCCCCN(O)C(C)=O)c(=O)c1=O)C(=O)O)C(C)C [zirconium-89 labelled] has a tissue uptake of 0.05 %ID/g (rat, brain; iv, 3 nmol/kg, 4 h, ex vivo).
For Cc1ncc([N+](=O)[O-])n1CCO, the MIC90 was 1 µg/mL (≈ 5.84 µM) (Prevotella spp.; bacterial growth).
COc1cc(Nc2ncc(F)c(Nc3ccc4c(n3)NC(=O)C(C)(C)O4)n2)cc(OC)c1OC has an IC50 of greater than 10 µM (CTSC (Homo sapiens, UniProt P53634)).

Some of these lines once more:
O=[N+]([O-])c1ccc(C2=[N+]([O-])c3ccccc3N3CCN=C23)cc1 gave an MIC90 of no more than 0.06 µg/mL (Prevotella spp.; bacterial growth).
